# Experimental data pooled from the literature.
# Each numbered part is a random draw from the data of one study; scales do not carry over between parts.

# Series 1
# Target: Centromere-binding protein 1, full length, His-tagged (CBF1, Saccharomyces cerevisiae, UniProt P17106, residues 1-351)
# Chain of UniProt P17106 (whole entry, looked up): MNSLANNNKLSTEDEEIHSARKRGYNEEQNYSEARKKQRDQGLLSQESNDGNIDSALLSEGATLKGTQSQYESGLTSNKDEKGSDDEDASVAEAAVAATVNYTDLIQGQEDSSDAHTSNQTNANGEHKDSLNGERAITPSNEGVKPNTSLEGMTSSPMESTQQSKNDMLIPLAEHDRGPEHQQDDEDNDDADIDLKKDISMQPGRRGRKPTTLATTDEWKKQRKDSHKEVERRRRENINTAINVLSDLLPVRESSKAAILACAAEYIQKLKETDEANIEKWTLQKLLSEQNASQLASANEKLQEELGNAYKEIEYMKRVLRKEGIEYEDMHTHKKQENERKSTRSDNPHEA
# Method: competition protein-binding microarray
# Molecule type: double-stranded DNA, one strand shown
# Matrix: in vitro
# Concentration: 2 µM
# Setting: whole 60-bp probe, lowest competitor level
# Together with: Pho4 competitor, 0.05 µM
# Direction: higher = stronger binding
# Shared flanks, not repeated: … GTCTTGATTCGCTTGACGCTGCTG
Oligonucleotide,fluorescence intensity [a.u.]
TGAACCCTTTTTGAGCATGTGTCAAAATCCAATGCA,196
GGCCGCCCATGGCCGCATGTGAGCAACGTCGACATT,77.2
GTTTCAGAAAATCCATGTCATTAAAGAGCTTTATCA,67.7
TGCGCAACAACTTGTCACAAAACTTTATGTCTAGAA,76.1
CTTCTGTAAATTTGTTAAGTGGGTGGACGCGCCCCG,84.2
TTCGATCAAGGCAACAACGTGGTGAAAACCGTACTT,103
AAATTACTAAGTTGGTGAGTGGGTGACGCCGTATGA,62.2
AAGGTTGTTAACTTCCACGTTCAGGTTATTCACTAC,79.9

# Series 2
# Target: PABPC1L2, full length, GST fusion (mouse, UniProt A0ABA7IW68)
# Method: RNAcompete
# Molecule type: RNA
# Matrix: in vitro
# Concentration: 20 nM
# Setting: 7-mer, probes averaged, single round
# Baseline: mean of 7-mers
# Direction: higher = stronger binding
# Target sequence (chain): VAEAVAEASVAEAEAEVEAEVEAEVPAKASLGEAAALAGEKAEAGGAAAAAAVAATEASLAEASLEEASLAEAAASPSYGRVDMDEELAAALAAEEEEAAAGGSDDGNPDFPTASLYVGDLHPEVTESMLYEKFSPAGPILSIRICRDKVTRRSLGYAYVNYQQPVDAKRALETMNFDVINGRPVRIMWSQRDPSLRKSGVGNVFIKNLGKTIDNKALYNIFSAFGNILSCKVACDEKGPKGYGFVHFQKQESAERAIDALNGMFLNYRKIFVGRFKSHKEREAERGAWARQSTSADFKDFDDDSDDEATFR
Oligonucleotide,7-mer Z-score
AAAGAAG,2.82
GUUUGAG,-0.42
AGCUCUC,-0.306
UUAUCAA,-0.0899
GCCCAGU,-0.228
UGAAGAA,0.075
AUCCCUG,-0.38
UAUUCUC,-0.322

# Single results of other studies
Substance,tested on,assay,system,conditions,scale,endpoint,result
"AP3D1 (Homo sapiens, UniProt O14617)","AP3S1 (Homo sapiens, UniProt Q92572)",cross-linking MS,,hits only,,interaction screen,cross-linked
C=C1c2cccc(O)c2C(O)=C2C(=O)[C@]3(O)C(O)=C(C(N)=O)C(=O)[C@@H](N(C)C)[C@@H]3[C@@H](O)[C@H]12,mouse MPNST tumor cells,"high-content nuclear imaging, measured: cell number",,"10 µM, 12 h, mean of 2 replicates","baseline: plate mean, higher = more cells",nuclei count,2.4 z-score
"JUP (Homo sapiens, UniProt P14923)","DSP (Homo sapiens, UniProt P15924)",cross-linking MS,,hits only,,interaction screen,cross-linked
"HNRNPA1 (Homo sapiens, UniProt P09651)","HNRNPL (Homo sapiens, UniProt P14866)",cross-linking MS,,hits only,,interaction screen,cross-linked
"ERH (Homo sapiens, UniProt P84090)","POLDIP3 (Homo sapiens, UniProt Q9BY77)",cross-linking MS,cell fractions,together with: DSSO,,cross-linked residues,K90 to K260

# Some of these lines once more (series 1):
Oligonucleotide,fluorescence intensity [a.u.]
AAGGTTGTTAACTTCCACGTTCAGGTTATTCACTAC,79.9
